Results collected from several papers.
Numbered parts are unrelated; each lists some results of a single study. Changes are numbered by the printed parent chain.

Block 1 — technique: protein binding microarray; molecule type: double-stranded DNA, one strand shown; sample: in vitro; concentration: not given; reference: not given; direction: higher = stronger binding
Target: Histone acetyltransferase KAT6A, winged helix 2, GST fusion (KAT6A, Homo sapiens, UniProt Q92794, residues 85-181)
Setting: 8-mer, flanks averaged, mean of 2 arrays, mostly near background
Residues (chain): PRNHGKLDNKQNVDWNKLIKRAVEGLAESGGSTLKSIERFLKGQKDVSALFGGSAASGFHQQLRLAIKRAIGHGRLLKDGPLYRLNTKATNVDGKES
| Oligonucleotide | E-score |
| --- | --- |
| AGTTTGGA | 0.129 |
| AGATAAAG | -0.0522 |
| GTCATAGA | -0.0874 |
| ATGGATCC | -0.0671 |
| CCACTTAA | 0.0773 |
| GGAGCGAA | 0.147 |
| GGGGGATA | -0.155 |
| CCCTATAC | -0.0845 |
| CGCCGTAG | 0.209 |
| ACATTCAC | -0.14 |
| GCGTTCCA | 0.0246 |
| CACCACAG | 0.118 |
| CTCTGCAC | -0.143 |
| GCATTGAA | 0.137 |
| CACGGTAG | -0.024 |
| AGGATGAC | -0.176 |
| CCAGAGAA | 0.000825 |

Block 2 — technique: DHFR PCA, deep sequencing; sample: yeast; together with: (+)-ABA 0.032 µM; reference: wild-type fitted maximum; direction: higher = stronger binding
Target: ABI1, truncated, D143A, DHFR fusion (Arabidopsis thaliana)
Setting: methotrexate growth selection, single substitutions
Starting sequence: PYL1, truncated, DHFR fusion (Arabidopsis thaliana); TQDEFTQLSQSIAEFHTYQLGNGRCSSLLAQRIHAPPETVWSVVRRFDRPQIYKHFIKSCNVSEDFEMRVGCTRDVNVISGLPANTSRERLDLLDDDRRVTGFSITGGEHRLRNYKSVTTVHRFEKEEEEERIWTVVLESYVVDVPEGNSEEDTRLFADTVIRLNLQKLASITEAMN
| Substitution | relative binding score [%] |
| --- | --- |
| Q10M | 12 |
| E67Y | -1.3 |
| L164S | 7.36 |
| Q10F | -6.67 |
| L28E | 2.86 |
| L169N | -9.96 |
| L156E | -0.596 |
| E131R | 49.6 |
| R46V | -6.76 |
| P146W | -1.34 |
| S80W | 51.4 |
| V70K | 0.958 |
| H122D | -4.7 |
| L169W | -0.739 |
| E147R | 1.4 |
| V142W | -4.72 |

Block 3 — technique: RNA Bind-n-Seq; molecule type: RNA; sample: in vitro; concentration: 365 nM; reference: no-protein control; direction: higher = stronger binding
Target: RNA binding protein fox-1 homolog 2, RRM domain, GST-SBP tag (RBFOX2, Homo sapiens, UniProt O43251-10, residues 100-194)
Setting: natural RNA segment, single round, ends assumed
All sequences stand within: GGGAGUUCUACAGUCCGACGAUC … UGGAAUUCUCGGGUGCCAA
Residues (chain): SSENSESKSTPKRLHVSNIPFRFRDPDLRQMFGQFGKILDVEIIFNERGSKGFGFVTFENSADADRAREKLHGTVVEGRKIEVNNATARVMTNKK
| Oligonucleotide | RBNS enrichment (R) |
| --- | --- |
| AAACUCCACAGGCCUCCAGAGAAUACCAGUUUCUCAGCCCAAGGGGUCCAUCACUGAGAAGUGCCCAAAGGGAAGUCAGGGAGCUGGGAGGAAAAGACAGCAGGACCAAG | 0.375 |
| GAAUUGCUGUGCAAGGCUCACCCUCUCUCUGUCAACACUGGAAUAAACUUUGCCUUUUCUGAGUAGUUGUUUGCCUGCCUCUCUCUGGGCUCCAUCCUUGCCCCCAAACU | 0.89 |
| ACCUUCUGAAGUUCACAUCGUUGGCAUUUCCUUUUUAUGUUAUGCAUACUUUGGCUGAACAAACAUUUAUUGGGCACUUCAGCUCAUUAGCACCAGGCAUGUAUAGACAC | 0.542 |
| GUUAAGACACUACUUGGUGGACCUCAACCCCAGAACCACCAAAUUUGGCAUUUCUAAGUUCCUAGGUGAUGUUCUACUCACAGUCAGUCCAGAGGAUUACCUUAAGAGUC | 0.354 |
| UUCACUCGCUUCGUCCUAGAUAGUUUAAAUGGGAAUCGGAUCCCCUGGUUGAGAGCUAAGACAACCACCUACCAGUGCCCAUGUCCCUUCCAGCUCACCUUGAGCAGCCU | 0.224 |
| UUUUUUUUUUUUCUUUUUCCAUAGGAAAGAAUAUAUAAAUUUGUAAAUCCUAAUUCAAAGAUGGCUCAUGUGUGAGGGCAUUGAGUUUGAUUUGUUUUCCCUUUGGUCUG | 0.786 |
| CUGUUGGUACUUAUACAAAGAAAAAUCAGCCCUGCCCUUUAGGACCUGAAAAUGCAACAGAAAGGGAGCGUGGGUACGAGGGCCUGGUUUCUACUGUGUGUAAAUGGGAG | 0.612 |
| ACCACCUAUGGGGGCCGGGCAGGAGCCUCUGGGGCCUCCACUCCGACAUCAGGACCUGAGAUGACCGCUGUGUGGCGCUCUCUCCCUGGGCAGGGUGGAUGCCACAGGCC | 0.56 |
| AGGAGGCUGAGGGUUAGGACACAGUAAAAUGAAUUUAACAGUUUCACUGCUUUCUCAAGUAGUUUUGAGUGCUGGGUCCUUAAAACCCAACUAUGCAUUUUUGUCUGAAA | 0.306 |
| UUGUAUGUGGAAUUUGUCCCAUGUGCUUGCUAAAAUGUUUGGGGAUCUCCUCACACUGGUAAUGUCUUUCCUGUUAGAGAGGUUUAUGCUACCACUUCGCAUUUCAUCUG | 1.27 |
| UACUUUGAACUGUCUCCUGCUUACAGGGGUGUAAUGGUUUCCUUUGACUAGAAGUCUAUUUGUGUUGUGGGGUGCGUGGGGAGAGCCAAGCAGGCAAAGCUGAACAUUUG | 0.625 |
| UAGUGUCUUAUCACUCUUUCAUGUCACAAUAGCGUGGAGCAUUAGAGAAAAGCCUAGACUUUUAGUUGAUAGCCAGUUGAAAUAUCAUUGAUAGAAUUUUAGUUUUAGGA | 0.447 |

Block 4 — technique: RNA Bind-n-Seq; molecule type: RNA; sample: in vitro; concentration: 200 nM; setting: whole 134-nt RNA, ends assumed; together with: 150 mM LiCl; reference: input library; direction: higher = stronger binding; each molecule: 7-deaza-guanosine replaces G
Target: Ras GTPase-activating protein-binding protein 1, full length (G3BP1, Homo sapiens, UniProt Q13283)
Sequence of UniProt Q13283 (whole entry, looked up): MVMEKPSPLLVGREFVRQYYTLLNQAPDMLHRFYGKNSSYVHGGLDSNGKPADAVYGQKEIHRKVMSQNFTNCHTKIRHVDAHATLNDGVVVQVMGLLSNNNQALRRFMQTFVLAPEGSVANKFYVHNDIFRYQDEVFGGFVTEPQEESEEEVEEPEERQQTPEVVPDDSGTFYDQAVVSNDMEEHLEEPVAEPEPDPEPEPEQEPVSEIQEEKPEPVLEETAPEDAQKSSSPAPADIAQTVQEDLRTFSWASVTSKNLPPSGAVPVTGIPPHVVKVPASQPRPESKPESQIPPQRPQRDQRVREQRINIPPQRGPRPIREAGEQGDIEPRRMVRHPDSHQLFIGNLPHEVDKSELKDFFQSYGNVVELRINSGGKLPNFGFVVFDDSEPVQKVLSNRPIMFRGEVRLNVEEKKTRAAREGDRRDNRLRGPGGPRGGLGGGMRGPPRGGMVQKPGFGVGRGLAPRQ
All sequences stand within: GGGAGUUCUACAGUCCGACGAUC … UGGAAUUCUCGGGUGUCAAGG
| Oligonucleotide | log2 enrichment |
| --- | --- |
| UCAAGUCCUGUGCUACACAUCGUAUGUACCGAAUCGGUUUGGUUUGGGGUUUGGAAAGUAUUAUGUUACGCCGUUCGGAUCUGCACUUCC | -0.714 |
| UCCUGUGCUACACAUCGUAUGUACCGAAUCGGGUUUUUGGGAAAAAGGGUUUUUUUGGGAAAGUAUUAUGUUACGCCGUUCGGAUCUGCA | -1.45 |
| CCUGUGCUACACAUCGUAUGUACCGAAUCGGGAAAAAAAGGGAAAAAGGGUUUUUUUGGGAAAGUAUUAUGUUACGCCGUUCGGAUCUGC | -1.45 |
| GCAGGAAGUAAAAACAAAUGGAAAUGCUUCGGAUAGUGGCAGGGGUGGGGGUUGCUAAGGAUAGGGUGGGAUGGGAGUGGGUAAAGAGUU | 0.0135 |
| GUCCUGUGCUACACAUCGUAUGUACCGAAUCGGAAAAAGGUUUUUUUGGUUUUUUUGGAAAGUAUUAUGUUACGCCGUUCGGAUCUGCAC | -2.44 |
| UCCUGUGCUACACAUCGUAUGUACCGAAUCAAACCCCCAAAUUUUUAAACCCCCCCAAAAAAGUAUUAUGUUACGCCGUUCGGAUCUGCA | 1.29 |
| CAAGUCCUGUGCUACACAUCGUAUGUACCGAAUCAAACCCAAAUUUAAAUUUAAAAAAGUAUUAUGUUACGCCGUUCGGAUCUGCACUUC | 0.641 |
| AGUCCUGUGCUACACAUCGUAUGUACCGAAUCGGGGUUUUUGGUUUUUGGUUUUUGGGAAAGUAUUAUGUUACGCCGUUCGGAUCUGCAC | -0.426 |
| AGUCCUGUGCUACACAUCGUAUGUACCGAAUCGGAAAAAGGAAAAAAAGGUUUUUGGAAAGUAUUAUGUUACGCCGUUCGGAUCUGCACU | -2.59 |
| CACAGACAACACGCACCCACACAGACACAGAGGGAAGGGGUUGGGAUGGGGACAAAAUGCACAGCAGGGCGGGGUAGGACCCCAGCCCCU | -0.206 |
| UCCUGUGCUACACAUCGUAUGUACCGAAUCGGGGUUUUUGGGGUUUUUGGGUUUUUGGGGAAAGUAUUAUGUUACGCCGUUCGGAUCUGC | 0.0656 |

Block 5 — target: NFE2, bZIP domain (human); technique: DHFR protein complementation; sample: yeast; reference: wild-type JUN-FOS pair; direction: higher = stronger binding
Setting: single substitutions, most at no-binding floor
Starting sequence: JUN, bZIP domain (human); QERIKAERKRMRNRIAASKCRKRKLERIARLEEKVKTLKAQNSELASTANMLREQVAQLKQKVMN; partner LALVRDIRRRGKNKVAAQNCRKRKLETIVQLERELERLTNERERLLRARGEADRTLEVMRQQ
| Substitution | binding fitness |
| --- | --- |
| L45V | -1.52 natural log |
| A29H | -1.39 natural log |
| L45T | -1.4 natural log |
| S47M | -1.36 natural log |
| E54R | -1.5 natural log |
| V56H | -1.52 natural log |
| K39N | -1.41 natural log |
| K36H | -0.964 natural log |
| A40N | -1.32 natural log |
| Q55S | -1.48 natural log |
| I28K | -1.51 natural log |
| A40F | -1.54 natural log |
| R30L | -1.41 natural log |
| K36I | -1.49 natural log |
| A29M | -1.37 natural log |
| K34S | -1.37 natural log |
| E33L | -1.42 natural log |
| V56K | -1.59 natural log |
| Q41P | -1.51 natural log |
| N42C | -1.4 natural log |
| E44Q | -1.45 natural log |
| L31I | -1.26 natural log |
| L45N | -1.54 natural log |
| L52A | -1.41 natural log |
| A57H | -1.53 natural log |

For quick reference, copied from above (block 1):
| Oligonucleotide | E-score |
| --- | --- |
| GGGGGATA | -0.155 |
| CCCTATAC | -0.0845 |
| CGCCGTAG | 0.209 |
| ACATTCAC | -0.14 |
